{"sequences": {"note": "By UniProt entry, the sequences of proteins in these tests, tags left out.", "UniProt P35368, whole entry": "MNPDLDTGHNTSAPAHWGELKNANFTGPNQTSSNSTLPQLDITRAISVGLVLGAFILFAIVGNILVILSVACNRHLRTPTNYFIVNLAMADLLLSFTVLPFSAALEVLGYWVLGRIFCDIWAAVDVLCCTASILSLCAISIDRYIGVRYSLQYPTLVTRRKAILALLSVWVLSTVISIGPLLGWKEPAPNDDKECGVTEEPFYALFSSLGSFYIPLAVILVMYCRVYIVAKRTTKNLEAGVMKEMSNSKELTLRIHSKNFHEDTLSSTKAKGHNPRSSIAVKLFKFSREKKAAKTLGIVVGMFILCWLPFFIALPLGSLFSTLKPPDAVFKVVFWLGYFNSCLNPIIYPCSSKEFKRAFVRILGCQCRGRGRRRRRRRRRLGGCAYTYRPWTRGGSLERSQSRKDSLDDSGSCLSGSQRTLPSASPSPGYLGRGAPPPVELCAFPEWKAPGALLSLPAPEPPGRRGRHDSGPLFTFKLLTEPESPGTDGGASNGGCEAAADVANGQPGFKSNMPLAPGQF", "UniProt Q9BZL6, whole entry": "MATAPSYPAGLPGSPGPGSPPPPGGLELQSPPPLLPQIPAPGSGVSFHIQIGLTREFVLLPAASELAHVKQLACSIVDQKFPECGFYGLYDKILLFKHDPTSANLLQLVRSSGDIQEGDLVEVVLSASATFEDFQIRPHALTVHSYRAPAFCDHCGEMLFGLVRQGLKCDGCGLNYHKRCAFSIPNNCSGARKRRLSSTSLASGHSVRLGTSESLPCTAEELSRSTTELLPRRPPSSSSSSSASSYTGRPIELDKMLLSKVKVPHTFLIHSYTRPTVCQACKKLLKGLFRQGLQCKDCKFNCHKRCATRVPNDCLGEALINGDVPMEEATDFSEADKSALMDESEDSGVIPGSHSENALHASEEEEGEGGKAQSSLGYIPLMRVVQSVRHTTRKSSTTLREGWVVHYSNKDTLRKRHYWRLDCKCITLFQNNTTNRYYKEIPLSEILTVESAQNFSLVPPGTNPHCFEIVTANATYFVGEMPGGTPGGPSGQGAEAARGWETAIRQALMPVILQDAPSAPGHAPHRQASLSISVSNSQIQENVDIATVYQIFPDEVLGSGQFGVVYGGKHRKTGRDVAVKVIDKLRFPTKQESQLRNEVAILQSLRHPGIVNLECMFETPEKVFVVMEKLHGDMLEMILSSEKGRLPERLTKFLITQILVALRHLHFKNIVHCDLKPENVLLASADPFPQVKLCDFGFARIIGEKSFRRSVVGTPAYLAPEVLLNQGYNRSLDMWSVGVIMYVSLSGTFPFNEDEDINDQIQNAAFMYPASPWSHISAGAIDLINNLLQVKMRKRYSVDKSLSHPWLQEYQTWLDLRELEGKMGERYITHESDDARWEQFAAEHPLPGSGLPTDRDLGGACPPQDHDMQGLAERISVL"}, "data": "Measured values pooled from the literature", "note": "Numbers after ± are the reported error."}
{"Substance": "C(CCCCCN1COOC2(CCCCCC2)OOC2(CCCCCC2)OOC1)CCCCN1COOC2(CCCCCC2)OOC2(CCCCCC2)OOC1", "tested on": "K562", "assay": "cytotoxicity, 7-AAD flow cytometry", "measurement": "IC50", "value": "1.74 ± 0.11 µM"}
{"Substance": "Cc1cc(N(CCCl)CCCl)ccc1C=O", "tested on": "A498", "assay": "cell growth, inhibitor, MTT", "measurement": "IC50", "value": "0.0677 µg/mL"}
{"Substance": "Cc1ccc(-c2csc(N(CC3OC(n4c[n+](Cc5ccccc5)c5c(=O)[nH]c(NC(=O)c6ccccc6)nc54)C4OC(C)(C)OC34)P(=O)([O-])O)n2)cc1 (stereo not shown)", "tested on": "MCF7", "assay": "cell growth, SRB", "measurement": "IC50", "value": "> 100 µM"}
{"Substance": "CCCN1CCN(c2ccc3c(c2)C2CC3CCN2C(=O)OCc2ccccc2)CC1 (stereo not shown)", "tested on": "Alpha-1B adrenergic receptor (ADRA1B, Homo sapiens, UniProt P35368)", "assay": "binding, radioligand binding", "measurement": "Ki", "value": "> 10 µM"}
{"Substance": "C1CCC2(C1)OOCOCOOC1(CCCC1)OO2", "tested on": "K562", "assay": "cytotoxicity, 7-AAD flow cytometry", "measurement": "IC50", "value": "6.04 ± 0.18 µM"}
{"Substance": "CSc1nc(Cl)cc(Sc2nnc(-c3cc(C(F)(F)F)cc(C(F)(F)F)c3)[nH]2)n1", "tested on": "Salmonella Typhimurium", "test system": "SL1344", "measurement": "MIC", "value": "> 590 µg/mL"}
{"Substance": "fluorouracil", "tested on": "DLD-1", "assay": "cell viability, MTS", "measurement": "IC50", "value": "> 50 µM"}
{"Substance": "C1CCCC2(CC1)OOCOCOOC1(CCCCCC1)OO2", "tested on": "HEK293", "assay": "cytotoxicity, 7-AAD flow cytometry", "measurement": "IC50", "value": "16.4 ± 0.28 µM"}
{"Substance": "COc1cc(S(=O)(=O)F)cc(OC)c1OC", "tested on": "NCI-H460", "assay": "cell viability, CellTiter-Glo", "conditions": "72 h", "measurement": "IC50", "value": "> 1.5 µM"}
{"Substance": "cisplatin", "tested on": "H1975", "assay": "viability, CellTiter-Glo", "conditions": "72 h", "measurement": "IC50", "value": "62 µM"}
{"Substance": "CCN1CCN(Cc2ccc(NC(=O)c3ccc(C)c(/C=C/c4cnc5[nH]ccc5c4OC)c3)cc2C(F)(F)F)CC1", "tested on": "NPM1-ALK fusion", "assay": "kinase-CDC37 interaction, cell-based kinome screen", "conditions": "5 µM", "how to read": "baseline: vehicle", "measurement": "log2 fold change", "value": 0.02}
{"Substance": "Cc1cc(N(CCCl)CCCl)ccc1C(=O)O", "tested on": "CAKI-1", "assay": "cell growth, inhibitor, MTT", "measurement": "IC50", "value": "6.6 µg/mL"}
{"Substance": "CC#C/C(=N\\OC[C@H]1COCCN1)c1ccc2ncnc(Nc3ccc(OCc4cccc(F)c4)c(Cl)c3)c2c1", "tested on": "Serine/threonine-protein kinase D2 (PRKD2, Homo sapiens, UniProt Q9BZL6)", "assay": "kinase activity", "conditions": "10 µM", "measurement": "inhibition", "value": "9.1%"}
{"note": "For quick reference, copied from above:"}
{"Substance": "Cc1cc(N(CCCl)CCCl)ccc1C=O", "tested on": "A498", "assay": "cell growth, inhibitor, MTT", "measurement": "IC50", "value": "0.0677 µg/mL"}
